Measurements of several laboratories.
Protocols differ between the studies behind these lines. “And” joins repeats or separate records; there may be more than shown. ± marks the error that the study gave.

SMILES | tested on | assay | test system | setting | scale | quantity | result
CN/C(=N\[N+](=O)[O-])NCc1cnc(Cl)s1 | – | – | soil | 0.12 nominal, 28 days, Folsomia candida soil test | – | recovery | 42%
CCCC(C(=O)c1ccc2c(c1)OCO2)N1CCCC1.Cl (racemic) | – | – | rat | subcutaneous, 1 mg/kg, 40 min | – | brain-to-plasma ratio | 9.5 and ~10
C#Cc1ccc2c(c1)C(c1ccccn1)=NCc1c(-c3cnco3)ncn1-2 | – | – | human hepatocytes | 2 µM, 4 h, 37 °C | – | metabolite peak area share | ~99%
CCCC(C(=O)c1ccc(O)c(OC)c1)N1CCCC1 (stereo not drawn) | – | LC-MS/MS | rat, trunk blood plasma | subcutaneous, 1 mg/kg MDPV, 40 min | – | plasma concentration | 15.6 ± 1.7 ng/mL
O=C1c2c(O)c(=O)ccn2N([C@@H]2c3ccccc3SCc3c2ccc(F)c3F)[C@@H]2COCCN12 | – | – | BALB/c mice, plasma | oral, 5 mg/kg baloxavir marboxil, 6 h | – | plasma concentration | 15.7 ng/mL
CCCC(C(=O)c1ccc(O)c(O)c1)N1CCCC1 (stereo not drawn) | – | – | rat | subcutaneous, 4 mg/kg MDPV, 240 min | – | brain-to-plasma ratio | 0.2 ± 0.1
CCC(CC)COC(=O)[C@H](C)N[P@](=O)(OC[C@H]1O[C@@](C#N)(c2ccc3c(N)ncnn23)[C@H](O)[C@@H]1O)Oc1ccccc1 | – | – | human | intravenous, 100 mg | – | participants with nausea | 0%
OCc1ncc2n1-c1ccc(Cl)cc1C(c1ccccc1F)=NC2 | – | – | human, plasma | 7.5 mg midazolam, day 12, geometric mean, together with: amenamevir 400 mg | – | AUC(0-t) | 39 ng·h/mL
CCN(CC)Cc1cc(Nc2ccnc3cc(Cl)ccc23)ccc1O | Vero-E6 | CellTiter-Glo ATP | – | 72 h, second round 5-point | relative to: DMSO 0%, hyamine -100%, more negative, more toxic | maximum response | -11.2%
CCN(CC)C(=O)[C@@H]1C=C2c3cccc4[nH]cc(c34)C[C@H]2N(C)C1 | – | compartmental pharmacokinetic model | human | dose not given, together with: placebo | – | absorption rate constant ka | 1.2 h⁻¹
CCCCN(CCCC)CCCNC(=O)c1ccc2nc(N3CCCCC3)sc2c1 | Vero-E6 | CellTiter-Glo ATP | – | concentration not given, 72 h, second round 5-point | relative to: DMSO 0%, hyamine -100%, more negative, more toxic | cytotoxicity efficacy | 0%
Cc1ncc2n1-c1ccc(Cl)cc1C(c1ccccc1F)=NC2 | – | – | wild-type mice, plasma | intravenous, 0.3 mg/kg, together with: 14-day BC 500 mg/kg | – | mean residence time | 0.227 ± 0.00833 h

Excerpt of the above:
SMILES | tested on | assay | test system | setting | scale | quantity | result
O=C1c2c(O)c(=O)ccn2N([C@@H]2c3ccccc3SCc3c2ccc(F)c3F)[C@@H]2COCCN12 | – | – | BALB/c mice, plasma | oral, 5 mg/kg baloxavir marboxil, 6 h | – | plasma concentration | 15.7 ng/mL
